{"data": "Measurements from different studies", "technique": "steady-state kinetics", "B1": "LYS1 C205S/D319A (Saccharomyces cerevisiae, UniProt P38998); chain MAAVTLHLRAETKPLEARAALTPTTVKKLIAKGFKIYVEDSPQSTFNINEYRQAGAIIVPAGSWKTAPRDRIIIGLKEMPETDTFPLVHEHIQFAHCYKDQAGWQNVLMRFIKGHGTLYDLEFLENDQGRRVAAFGFYAGFAGAALGVRDWAFKQTHSDDEDLPAVSPYPNEKALVKDVTKDYKEALATGARKPTVLIIGALGRSGSGAIDLLHKVGIPDANILKWDIKETSRGGPFDEIPQADIFINCIYLSKPIAPFTNMEKLNNPNRRLRTVVDVSADTTNPHNPIPIYTVATVFNKPTVLVPTTAGPKLSVISIAHLPSLLPREASEFFSHDLLPSLELLPQRKTAPVWVRAKKLFDRHCARVKRSSRL", "B2": "protein (Actinidia chinensis, UniProt H9M5U5); chain MATAAGPIATNNSPQNSNAYRTPIAPSVPITHKWSIAEDLTCISNPSKHNNPQTGYRSFSDELYVKYEEKLEDVRKALREVEENPLEGLVMIDALQRLGIDYHFRGEIGAFLQKQQIISSTPDGYPEHGLYEVSTLFRFLRQEGHNVTADVFNNFKDKEGRFRSELSTDIRGLMSLYEASQLRIEGEDILDQAADFSSQLLGRWTKDPNHHEARLVSNTLTHPYHKSLATFMGQKLSYMNCKGPNWDGVDNLQELAKMDLTIVQSIHQKEVFQVSQWWKDTGLANELKLARNQPLKWYMWPMAALTDPRFSEERVELTKPISFIYIIDDIFDVYGTIEELTLFTDAVNRWELSAVEQLPDYMKVCFKALYDVTNEIAYKIYKKHGQNPIDSLQKTWASLCNAFLVEAKWFASGHLPNAEEYLKNGIISSGVHVVLAHMFFLLGDGITQESVDLVDDYPGISTSIATILRLSDDLGSAKDEDQDGYDGSYIECYMKEHKGSSVDSAREEVIRMISEAWKCLNKECLSPNPFSESFRIGSLNMARMIPMMYSYDDNHNLPILEEHMKAMIYNTSL", "B3": "enzyme H284A (Daphnia magna, UniProt A0A0A7CK57); chain MVDAAVAEKLEAGFQKLQEATNCKSLLKKHLTREIFDKIKDLKTSFGSTLLDVIQSGVENLDSGFGVYAPDAEAYSVFNDLFEPMICDYHTGFKPGDAHPPRDFGDLETFGNLDPEGAFIVSTRVRCGRSLAGYAFNPCLTEANYKEMEEKVVASLSSLEGELKGTYYPLTGMTKEVQTQLIQDRFLFKEGDRFLQAANACRYWPTGRGIYHNDAKTFLVWCNEEDHLRIISMQKGGDLKAVYARLVNAINEIEKRIPFSHHDKYGFLTFCPTNLGTTIRASVAIALPKLAADLAKLEEAAGKFNLQVRGTAGEHTEAEGGVYDISNKRRMGLTEYQAVKEMYDGLQELIRMEKEAA", "B4": "carbamoyl phosphate synthetase large subunit M174E/M378E (Escherichia coli, UniProt P00968); chain PKRTDIKSILILGAGPIVIGQACEFDYSGAQACKALREEGYRVILVNSNPATIMTDPEMADATYIEPIHWEVVRKIIEKERPDAVLPTMGGQTALNCALELERQGVLEEFGVTMIGATADAIDKAEDRRRFDVAMKKIGLETARSGIAHTMEEALAVAADVGFPCIIRPSFTEGGSGGGIAYNREEFEEICARGLDLSPTKELLIDESLIGWKEYEMEVVRDKNDNCIIVCSIENFDAMGIHTGDSITVAPAQTLTDKEYQIMRNASMAVLREIGVETGGSNVQFAVNPKNGRLIVIEMNPRVSRSSALASKATGFPIAKVAAKLAVGYTLDELMNDITGGRTPASFEPSIDYVVTKIPRFNFEKFAGANDRLTTQEKSVGEVMAIGRTQQESLQKALRGLEVGATGFDPKVSLDDPEALTKIRRELKDAGADRIWYIADAFRAGLSVDGVFNLTNIDRWFLVQIEELVRLEEKVAEVGITGLNADFLRQLKRKGFADARLAKLAGVREAEIRKLRDQYDLHPVYKRVDTCAAEFATDTAYMYSTYEEECEANPSTDREKIMVLGGGPNRIGQGIEFDYCCVHASLALREDGYETIMVNCNPETVSTDYDTSDRLYFEPVTLEDVLEIVRIEKPKGVIVQYGGQTPLKLARALEAAGVPVIGTSPDAIDRAEDRERFQHAVERLKLKQPANATVTAIEMAVEKAKEIGYPLVVRPSYVLGGRAMEIVYDEADLRRYFQTAVSVSNDAPVLLDHFLDDAVEVDVDAICDGEMVLIGGIMEHIEQAGVHSGDSACSLPAYTLSQEIQDVMRQQVQKLAFELQVRGLMNVQFAVKNNEVYLIEVNPRAARTVPFVSKATGVPLAKVAARVMAGKSLAEQGVTKEVIPPYYSVKEVVLPFNKFPGVDPLLGPEMRSTGEVMGVGRTFAEAFAKAQLGSNSTMKKHGRALLSVREGDKERVVDLAAKLLKQGFELDATHGTAIVLGEAGINPRLVNKVHEGRPHIQDRIKNGEYTYIINTTSGRRAIEDSRVIRRSALQYKVHYDTTLNGGFATAMALNADATEKVISVQEMHAQIK", "B5": "enzyme A178R/D177A/G159A/M179S/P184R (Levilactobacillus brevis, UniProt Q03Q85); chain MKVTVVGCTHAGTFAIKQILAEHPDAEVTVYERNDVISFLSCGIALYLGGKVADPQGLFYSSPEELQKLGANVQMNHNVLAIDPDQKTVTVEDLTNHAQTTESYDKLVMTSGSWPIVPKIPGIDSDRVKLCKNWAHAQALIEDAKEAKRITVIGAGYIAAELAEAYSTTGHDVTLIARSARVMRKYFDADFTDVIEQDYRDHGVQLALGETVESFTDSATGLTIKTDKNSYETDLAILCIGFRPNTDLLKGKVDMAPNGAIITDDYMRSSNPDIFAAGDSAAVHYNPTHQNAYIPLATNAVRQGILVGKNLVKPTVKYMGTQSSSGLALYDRTIVSTGLTLAAAKQQGLNAEQVIVEDNYRPEFMPSTEPVLMSLVFDPDTHRILGGALMSKYDVSQSANTLSVCIQNENTIDDLAMVDMLFQPNFDRPFNYLNILAQAAQAKVAQSVNA", "B6": "CPT1 (Solanum lycopersicum, UniProt C1K5M2); chain SLNLQTEKLCYEDNDNDLDEELMPKHIALIMDGNRRWAKDKGLEVYEGHKHIIPKLKEICDISSKLGIQIITAFAFSTENWKRSKEEVDFLLQMFEEIYDEFSRSGVRVSIIGCKSDLPMTLQKCIALTEETTKGNKGLHLVIALNYGGYYDILQATKSIVNKAMNGLLDVEDINKNLFDQELESKCPNPDLLIRTGGEQRVSNFLLWQLAYTEFYFTNTLFPDFGEEDLKEAIMNFQQRHRRFGGHTY", "B7": "UGP (Trypanosoma brucei, UniProt D3HTY9); chain MPLNPPSAFSGAALACLEKMQASGVEEKCIHIFLIQHALVRKGETGYIPEKSISPVESLPFLQGIETKGENTALLRQAVVLKLNGGLGTGMGLNGPKSLLQVKNGQTFLDFTALQLEHFRQVRNCNVPFMLMNSFSTSGETKNFLRKYPTLYEVFDSDIELMQNRVPKIRQDNFFPVTYEADPTCEWVPPGHGDVYTVLYSSGKLDYLLGKGYRYMFISNGDNLGATLDVRLLDYMHEKQLGFLMEVCRRTESDKKGGHLAYKDVIDETTGQTRRRFVLRESAQCPKEDEDSFQNIAKHCFFNTNNIWINLMELKKMMDEQLGVLRLPVMRNPKTVNPQDSQSTKVYQLEVAMGAAISLFDRSEAVVVPRERFAPVKTCSDLLALRSDAYQVTEDQRLVLCEERNGKPPAIDLDGEHYKMIDGFEKLVKGGVPSLRQCTSLTVRGLVEFGADVSVRGNVVIKNLKEEPLIIGSGRVLDNEVVVVE", "B8": "protein (Sinorhizobium meliloti, UniProt Q92WA4); chain MNYFRNDFRGTLFGTNEATDSLRRRSLQKRILVTGGAGFLGSHLCELLLGAGHEVICLDNFSTGLRRNIAPLKRFDTFRVIAHDVVEPIDLEVDEIYNLACPASPPHYQADPIQTTKTCVIGSLNLLDLAARRGARIFQASTSEIYGDPHVHPQVESYWGNVNPFGPRSCYDEGKRCAETLFFDFHKSHGVEIKIVRIFNTYGPRMRPDDGRVVSNFIVQALKGEDITIYGDGSQTRSFCFVEDLIDGFVRLMASPPSLTGPVNLGNPAEFTIGELAEEVIRLTGSRSKIVRRPLPVDDPRQRRPDISLATEELGWRPKVNLAEGLAHTIRYFDDLLSRSMRESAELV", "B9": "Nudt8 (Mus musculus, UniProt Q9CR24); chain MLPDGLSAEDEQRCRQLLARTTARLRSRPAAAAVLVPLCLVRGVPALLYTLRSSRLVGRHKGEVSFPGGKCDPDDQDVIHTALRETQEELGLEVPKEHVWGVLQPVYDREKATIVPVLANVGPLDLQSLRPNLEEVDEVFEMSLAHLLQTQNQGYTHFCQGGHFSYTLPVFLHGPHRVWGLTAVITELTLKLLAPGFYQPSLAVPELPRG", "UniProt P19337, sequence (whole entry, looked up)": "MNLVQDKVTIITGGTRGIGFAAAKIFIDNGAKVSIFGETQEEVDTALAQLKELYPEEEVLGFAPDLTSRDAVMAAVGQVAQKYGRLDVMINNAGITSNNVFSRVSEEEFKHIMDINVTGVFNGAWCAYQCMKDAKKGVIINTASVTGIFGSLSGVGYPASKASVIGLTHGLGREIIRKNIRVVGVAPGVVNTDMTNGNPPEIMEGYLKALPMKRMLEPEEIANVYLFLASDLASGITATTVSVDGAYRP", "UniProt P07275, sequence (whole entry, looked up)": "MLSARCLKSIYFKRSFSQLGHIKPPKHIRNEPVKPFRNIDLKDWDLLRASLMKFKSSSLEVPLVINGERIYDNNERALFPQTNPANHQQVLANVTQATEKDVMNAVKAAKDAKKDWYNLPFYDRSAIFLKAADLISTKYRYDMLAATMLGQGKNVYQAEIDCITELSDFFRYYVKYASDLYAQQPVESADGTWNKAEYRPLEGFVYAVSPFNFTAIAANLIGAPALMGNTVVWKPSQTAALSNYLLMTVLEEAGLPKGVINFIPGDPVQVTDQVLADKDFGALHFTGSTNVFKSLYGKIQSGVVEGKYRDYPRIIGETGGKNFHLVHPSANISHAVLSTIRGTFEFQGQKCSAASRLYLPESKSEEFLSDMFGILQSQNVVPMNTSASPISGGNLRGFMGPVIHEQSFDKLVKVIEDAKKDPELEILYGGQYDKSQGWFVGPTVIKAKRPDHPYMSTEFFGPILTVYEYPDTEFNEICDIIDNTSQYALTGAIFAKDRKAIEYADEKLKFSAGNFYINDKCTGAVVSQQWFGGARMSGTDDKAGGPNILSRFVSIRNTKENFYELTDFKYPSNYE"}
{"Substance": "B1 (LYS1 C205S/D319A)", "substrate": "O=C(O)CCC(=O)C(=O)O", "pH": "pH 7.2", "temperature": "25 °C", "together with": "NADH and Lys", "Km": "210 µM"}
{"Substance": "LovD A190T/A86V/C40A/C60N/D12G/G275S/H161Y/K26E/L361M/V334D (Aspergillus terreus)", "substrate": "CCC(C)(C)C(=O)SCCC(=O)OC", "temperature": "25 °C", "notes": "10% DMSO", "together with": "2 mM MJA", "Km": "630 µM"}
{"Substance": "B2 (protein)", "substrate": "CC(C)=CCC/C(C)=C/COP(=O)(O)OP(=O)(O)O", "pH": "pH 7.5", "temperature": "room temperature", "notes": "labelled compound", "together with": "MgCl2 20 mM", "Km": "1.89 µM"}
{"Substance": "B3 (enzyme H284A)", "substrate": "N=C(N)NCCC[C@H](N)C(=O)O", "pH": "pH 8.5", "Km": "900 µM"}
{"Substance": "B4", "substrate": "Nc1ncnc2c1ncn2[C@@H]1O[C@H](COP(=O)(O)OP(=O)(O)OP(=O)(O)O)[C@@H](O)[C@H]1O", "pH": "pH 7.6", "notes": "KCl 100 mM", "together with": "glutamine 10 mM, ornithine 10 mM", "Km": "280 µM"}
{"Substance": "B5", "substrate": "NC(=O)C1=CN([C@@H]2O[C@H](COP(=O)(O)OP(=O)(O)OC[C@H]3O[C@@H](n4cnc5c(N)ncnc54)[C@H](OP(=O)(O)O)[C@@H]3O)[C@@H](O)[C@H]2O)C=CC1", "pH": "pH 7.5", "temperature": "37 °C", "Km": "24 µM"}
{"Substance": "PUT2 (Saccharomyces cerevisiae, UniProt P07275)", "substrate": "O=C(O)[C@@H]1CCC=N1", "pH": "pH 7.5", "temperature": "20 °C", "Km": "104 µM"}
{"Substance": "B6 (CPT1)", "substrate": "C=C(C)CCO[P@@](=O)(O)OP(=O)(O)O", "Km": "273 µM"}
{"Substance": "B7 (UGP)", "substrate": "O=c1ccn([C@@H]2O[C@H](COP(=O)(O)OP(=O)(O)OP(=O)(O)O)[C@@H](O)[C@H]2O)c(=O)[nH]1", "pH": "pH 7.2", "notes": "apparent", "Km": "53 µM"}
{"Substance": "B8 (protein)", "substrate": "O=C(O)[C@H]1O[C@H](OP(=O)(O)OP(=O)(O)OC[C@H]2O[C@@H](n3ccc(=O)[nH]c3=O)[C@H](O)[C@@H]2O)[C@H](O)[C@@H](O)[C@@H]1O", "pH": "pH 7.6", "temperature": "37 °C", "together with": "NAD+ 1 mM", "Km": "95 µM"}
{"Substance": "BaiA2 (Clostridium scindens, UniProt P19337)", "substrate": "C[C@H](CCC(=O)SCCNC(=O)CCNC(=O)[C@H](O)C(C)(C)COP(=O)(O)OP(=O)(O)OC[C@H]1O[C@@H](n2cnc3c(N)ncnc32)[C@H](O)[C@@H]1OP(=O)(O)O)[C@H]1CC[C@H]2[C@@H]3CC[C@@H]4CC(=O)CC[C@]4(C)[C@H]3CC[C@]12C", "pH": "pH 8.7", "temperature": "37 °C", "together with": "NADH", "Km": "1.3 µM"}
{"Substance": "B9 (Nudt8)", "substrate": "CC(=O)SCCNC(=O)CCNC(=O)[C@H](O)C(C)(C)COP(=O)(O)OP(=O)(O)OC[C@H]1O[C@@H](n2cnc3c(N)ncnc32)[C@H](O)[C@@H]1OP(=O)(O)O", "pH": "pH 8.5", "together with": "2 mM Mn2+", "Km": "707 µM"}
{"note": "Repeated from above:"}
{"Substance": "B7 (UGP)", "substrate": "O=c1ccn([C@@H]2O[C@H](COP(=O)(O)OP(=O)(O)OP(=O)(O)O)[C@@H](O)[C@H]2O)c(=O)[nH]1", "pH": "pH 7.2", "notes": "apparent", "Km": "53 µM"}
